Experimental data of several laboratories.
Each line is one published result; not all experiments were run side by side. Numbers after ± are the reported error.

SMILES	system	setting	half-life [h]
CC(c1cncnc1)n1c(=S)[nH]c2ccc(Cl)cc2c1=O (stereo not drawn)	mouse, plasma	intravenous, dose not given	1.2
Nc1ccc2cc3ccc(N)cc3nc2c1	male CD-1 mouse, plasma	intravenous, 15 mg/kg	1.7
Cc1ccccc1C(=O)NN=Cc1ccc(O)c(Br)c1	mouse C3H/HeN, plasma	intravenous, 0.8 mg/kg	0.983
COc1cccc2c1CCCC2CCCN1CCN(C2CCCCC2)CC1 (stereo not drawn)	CD-1 mouse, male, plasma	intraperitoneal, 10 mg/kg	7.18
Cc1ncc2n1-c1ccc(Cl)cc1C(c1ccccc1F)=NC2	wild-type mouse, plasma	intravenous, 0.3 mg/kg, 3-day vehicle pretreatment	0.475 ± 0.0817
CCCCCCCC(=O)N[C@@H](CCCCN)C(=O)N[C@@H](CCCCN)C(=O)N[C@@H](C)C(=O)N[C@@H](CC(C)C)C(=O)N[C@@H](CCCCN)C(=O)N[C@@H](CC(C)C)C(=O)N[C@@H](C)C(=O)N[C@@H](CCCCN)C(=O)N[C@@H](CCCCN)C(=O)N1CCC[C@H]1C(=O)N[C@@H](CC(C)C)C(=O)N[C@@H](CCCCN)C(=O)N[C@@H](CC(C)C)C(=O)N[C@@H](CC(C)C)C(=O)N[C@@H](CCCCN)C(N)=O	mouse ICR CD1 female, whole blood	intravenous bolus, 10 mg/kg	0.12 ± 0.06
Clc1nc[n]([Au][PH](c2ccccc2)(c2ccccc2)c2ccccc2)c1Cl	NCG mouse, plasma	intraperitoneal, 10 mg/kg	~62.4
COc1cc2c(cc1OC)CN(CCc1ccc(NC(=O)c3cccc4c(=O)c5cccc(OC)c5[nH]c34)cc1)CC2	CD-1 mouse, male, lung	intraperitoneal, 1 mg/kg	7.97
CN(C)C1(CNC(=O)c2ccc3c(c2)CCN3C(=O)c2ccccc2)CCOCC1	ICR mouse, male, plasma	intraperitoneal, 30 mg/kg	1.08 ± 0.05
N#C[C@@]1(n2ccc(N)nc2=O)O[C@H](CO)[C@@H](O)[C@H]1O	CD-1 mouse, plasma	intravenous, 15 mg/kg	1.57
CC/C(=C(\c1ccccc1)c1ccc(OCCN(C)C)cc1)c1ccccc1	CD-1 mouse, male, lung	intraperitoneal, 0.3 mg/kg	4.63
C[C@H](O)c1cnc(NS(=O)(=O)c2ccc(C(F)(F)F)c(Cl)c2)nc1	hepatocytes, HSD17B13 knockout with AAV control, C57BL/6J mouse, male	1 µM	> 12.5

Excerpt of the above:
SMILES	system	setting	half-life [h]
Nc1ccc2cc3ccc(N)cc3nc2c1	male CD-1 mouse, plasma	intravenous, 15 mg/kg	1.7
Cc1ccccc1C(=O)NN=Cc1ccc(O)c(Br)c1	mouse C3H/HeN, plasma	intravenous, 0.8 mg/kg	0.983
